Literature values as cited in several papers.
Lines come from different studies, so protocols differ. Several values in a cell are separate wells, animals, samples, runs or records. Numbers after ± are the reported error.

CCN(CC)C(=O)CC(NC(=O)CCc1ccccc1)C(=O)NC(Cc1ccc(F)cc1)C(=O)NC(Cc1ccc(F)cc1F)C(=O)C1(C)CO1 (centres unmarked)  CC50 (HepG2): > 20 µM
COC1=CC(c2ccc[nH]2)=NC1=CNC1CCCCCC1.Cl  IC50 (HepG2; cytotoxicity): 3.3 µg/mL
CN(C(=O)[C@H](Cc1ccccc1)NC(=O)Cc1c[nH]c2ccc(O)cc12)c1ccccc1  CC50 (TZM-GFP): 55 ± 2 µM
Cc1nc(-c2ccncc2)sc1C(=O)NC(C(=O)Nc1cccc(C(N)=O)c1)c1ccc(OCc2ccccc2)cc1 (centres unmarked)  CC50 (HeLa; cytotoxicity): > 50 µM
CCOC(=O)C(c1cc(Cl)c2cccnc2c1O)N1CCOCC1 (centres unmarked)  IC50 (COLO 320 ABCB1-resistant colon; cytotoxicity): 1.56 µM and 1.79 µM and 1.81 µM
CN(C)c1ncnc2c1ncn2[C@@H]1O[C@H](CO)[C@@H](NC(=O)[C@@H](N)CSC23CC4CC(CC(C4)C2)C3)[C@H]1O  CC50 (Vero; MTT): 17.6 µM
COC1=CC(c2ccc[nH]2)=NC1=CNC12CC3CC(CC(C3)C1)C2.Cl  IC50 (HepG2; cytotoxicity): 1.2 µg/mL
CCCCCC(=O)N[C@@H](Cc1ccccc1)C(=O)N[C@@H](CCCC)C(=O)N[C@@H](Cc1ccccc1)C(=O)[C@@]1(C)CO1  CC50 (HepG2 cells; cell viability): 0.031 ± 0.014 µM
COc1ccc(Nc2nc(Nc3ccc(OCC[18F])cc3)ncc2Br)cc1  tissue uptake (S180 tumour-bearing mice, tumor; intravenous, 5 min): 3.39 ± 0.25 %ID/g
CCOC(=O)C(c1ccc2ccccc2c1O)c1c[nH]c2ccccc12 (centres unmarked)  cytotoxicity (COLO 205 colon adenocarcinoma; concentration not given): no effect
CCCCCC(=O)N[C@@H](Cc1c[nH]c2ccccc12)C(=O)N[C@@H](CCCC)C(=O)N[C@@H](CC(C)C)C(=O)[C@@]1(C)CO1  CC50 (HepG2 cells; cell viability): 0.0032 ± 0.0013 µM
CCOC(=O)C(c1cc(Cl)c2cccnc2c1O)c1c[nH]c2ncccc12 (centres unmarked)  IC50 (COLO 205; cell viability): 8.11 µM
CCn1c(C)c(CC(=O)N[C@@H](Cc2ccccc2)C(=O)N(C)c2cccc(F)c2)c2ccccc21  CC50 (TZM-GFP): 20 ± 2 µM
CCCCCC(=O)N[C@@H](Cc1ccc(NC(=O)OC(C)(C)C)cc1)C(=O)N[C@@H](CCCC)C(=O)N[C@@H](CC(C)C)C(=O)[C@@]1(C)CO1  CC50 (HepG2 cells; cell viability): 0.08 ± 0.027 µM
CCn1c(C)c(CC(=O)N[C@@H](Cc2ccccc2)C(=O)N(C)c2ccccc2)c2ccccc21  CC50 (TZM-GFP): 21 ± 0.7 µM
CC(=O)N1CCN(C(=O)c2ccc(Nc3nccc(-c4ccc(Cl)cc4)n3)cc2)CC1  efflux ratio (Caco-2): 1.5
COc1cc2c(cc1OC)C(c1c[nH]c3ccccc13)NCC2 (centres unmarked)  IC50 (COLO 320 ABCB1-resistant colon; cytotoxicity): 60.4 µM
Cc1nc(-c2ccc(F)cc2)sc1C(=O)N[C@H](C(=O)Nc1cccc(C(N)=O)c1)c1ccc(OCc2ccccc2)cc1  CC50 (HeLa; cytotoxicity): > 100 µM
CCn1c(C)c(CC(=O)N[C@@H](Cc2ccccc2)C(=O)N(C)c2ccc(Cl)cc2)c2ccccc21  CC50 (TZM-GFP): 27 ± 11 µM
CCOC(=O)C(c1cc(Cl)c2cccnc2c1O)c1c[nH]c2ccccc12 (centres unmarked)  IC50 (COLO 320 ABCB1-resistant colon; cytotoxicity): 4.83 µM and 4.96 µM and 4.64 µM
CN(C(=O)[C@H](Cc1ccccc1)NC(=O)Cc1c[nH]c2ccc(O)cc12)c1ccc(Cl)cc1  CC50 (TZM-GFP): > 100 µM
COC1=CC(c2ccc[nH]2)=NC1=CNC(C)(C)C.Cl  IC50 (HepG2; cytotoxicity): 5.4 µg/mL
Oc1c(Cc2c[nH]c3ccccc23)cc(Cl)c2cccnc12  cytotoxicity (MRC-5 normal embryonic fibroblasts; concentration not given): not toxic
